Measurements collected from several papers.
Numbered parts are unrelated; each lists some results of a single study.
Chain of UniProt P41743 (whole entry, looked up): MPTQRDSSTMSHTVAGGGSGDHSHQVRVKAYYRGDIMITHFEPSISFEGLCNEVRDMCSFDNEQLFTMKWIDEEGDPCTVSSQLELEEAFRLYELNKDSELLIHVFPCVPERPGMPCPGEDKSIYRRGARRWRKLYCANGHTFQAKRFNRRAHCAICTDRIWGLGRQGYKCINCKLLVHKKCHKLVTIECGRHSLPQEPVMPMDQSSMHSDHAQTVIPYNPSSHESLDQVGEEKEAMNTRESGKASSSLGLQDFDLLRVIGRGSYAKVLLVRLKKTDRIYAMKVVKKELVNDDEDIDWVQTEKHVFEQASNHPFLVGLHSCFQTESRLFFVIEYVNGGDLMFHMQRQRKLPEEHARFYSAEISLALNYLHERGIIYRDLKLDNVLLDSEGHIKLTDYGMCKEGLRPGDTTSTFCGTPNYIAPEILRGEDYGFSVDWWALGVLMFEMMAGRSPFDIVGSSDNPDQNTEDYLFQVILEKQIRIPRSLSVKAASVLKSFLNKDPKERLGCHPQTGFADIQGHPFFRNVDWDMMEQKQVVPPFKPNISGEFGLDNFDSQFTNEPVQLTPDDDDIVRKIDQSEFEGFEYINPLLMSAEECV
Chain of UniProt Q92630 (whole entry, looked up): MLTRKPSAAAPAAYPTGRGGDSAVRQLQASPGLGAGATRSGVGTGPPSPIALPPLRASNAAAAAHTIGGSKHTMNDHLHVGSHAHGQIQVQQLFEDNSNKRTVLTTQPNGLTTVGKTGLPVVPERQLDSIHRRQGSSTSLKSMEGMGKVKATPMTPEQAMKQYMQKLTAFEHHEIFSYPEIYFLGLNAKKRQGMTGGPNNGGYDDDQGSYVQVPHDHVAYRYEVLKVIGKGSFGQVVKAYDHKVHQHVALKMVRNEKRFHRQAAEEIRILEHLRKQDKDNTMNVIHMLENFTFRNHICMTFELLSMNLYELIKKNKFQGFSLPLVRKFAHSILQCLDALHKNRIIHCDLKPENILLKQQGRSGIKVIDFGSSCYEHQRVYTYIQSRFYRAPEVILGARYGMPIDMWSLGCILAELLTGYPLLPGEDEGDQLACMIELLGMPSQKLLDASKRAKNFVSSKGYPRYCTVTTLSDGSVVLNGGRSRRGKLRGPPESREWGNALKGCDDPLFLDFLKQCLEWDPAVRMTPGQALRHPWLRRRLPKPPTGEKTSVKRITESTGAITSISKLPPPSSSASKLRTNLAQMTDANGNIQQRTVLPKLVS
Chain of UniProt O00444 (whole entry, looked up): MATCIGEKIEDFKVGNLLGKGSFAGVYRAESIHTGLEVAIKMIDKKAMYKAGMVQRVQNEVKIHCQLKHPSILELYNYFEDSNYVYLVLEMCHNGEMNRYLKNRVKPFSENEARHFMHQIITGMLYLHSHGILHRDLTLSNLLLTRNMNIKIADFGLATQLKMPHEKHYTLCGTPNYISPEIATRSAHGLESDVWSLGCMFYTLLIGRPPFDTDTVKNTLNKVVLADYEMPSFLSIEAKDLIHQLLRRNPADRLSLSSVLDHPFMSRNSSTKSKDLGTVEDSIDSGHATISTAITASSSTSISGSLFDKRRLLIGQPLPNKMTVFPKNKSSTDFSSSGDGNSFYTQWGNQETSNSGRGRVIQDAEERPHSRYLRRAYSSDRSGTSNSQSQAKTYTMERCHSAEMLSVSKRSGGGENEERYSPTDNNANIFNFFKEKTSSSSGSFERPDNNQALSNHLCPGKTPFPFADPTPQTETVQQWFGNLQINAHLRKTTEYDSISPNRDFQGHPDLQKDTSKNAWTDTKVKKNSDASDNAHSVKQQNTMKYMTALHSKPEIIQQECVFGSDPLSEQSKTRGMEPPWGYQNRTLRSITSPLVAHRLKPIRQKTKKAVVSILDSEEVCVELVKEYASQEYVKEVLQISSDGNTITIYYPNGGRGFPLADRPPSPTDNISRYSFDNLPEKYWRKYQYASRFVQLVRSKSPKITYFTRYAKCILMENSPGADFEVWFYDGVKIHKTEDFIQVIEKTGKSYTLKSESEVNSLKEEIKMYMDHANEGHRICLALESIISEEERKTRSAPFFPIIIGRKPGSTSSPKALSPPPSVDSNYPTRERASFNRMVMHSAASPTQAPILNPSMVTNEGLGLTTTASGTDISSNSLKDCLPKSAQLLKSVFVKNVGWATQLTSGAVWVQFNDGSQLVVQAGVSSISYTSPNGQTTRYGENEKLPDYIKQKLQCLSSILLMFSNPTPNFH
Chain of UniProt Q8NI60 (whole entry, looked up): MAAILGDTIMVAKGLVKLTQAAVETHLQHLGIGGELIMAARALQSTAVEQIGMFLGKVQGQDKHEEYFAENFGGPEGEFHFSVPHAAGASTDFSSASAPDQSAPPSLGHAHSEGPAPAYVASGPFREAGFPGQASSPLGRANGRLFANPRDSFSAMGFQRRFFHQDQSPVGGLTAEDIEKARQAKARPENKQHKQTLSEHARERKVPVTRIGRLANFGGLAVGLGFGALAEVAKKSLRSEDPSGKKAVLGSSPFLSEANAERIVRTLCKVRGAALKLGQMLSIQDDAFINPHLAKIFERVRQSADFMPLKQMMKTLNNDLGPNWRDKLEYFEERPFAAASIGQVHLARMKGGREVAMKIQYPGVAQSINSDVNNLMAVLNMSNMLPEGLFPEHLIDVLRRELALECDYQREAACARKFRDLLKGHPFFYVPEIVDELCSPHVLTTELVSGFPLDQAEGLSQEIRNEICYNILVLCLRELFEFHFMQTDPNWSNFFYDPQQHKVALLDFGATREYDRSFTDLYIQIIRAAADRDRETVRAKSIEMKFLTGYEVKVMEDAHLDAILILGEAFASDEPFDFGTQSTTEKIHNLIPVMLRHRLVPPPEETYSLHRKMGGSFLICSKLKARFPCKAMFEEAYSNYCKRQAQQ
Chain of UniProt Q8NE63 (whole entry, looked up): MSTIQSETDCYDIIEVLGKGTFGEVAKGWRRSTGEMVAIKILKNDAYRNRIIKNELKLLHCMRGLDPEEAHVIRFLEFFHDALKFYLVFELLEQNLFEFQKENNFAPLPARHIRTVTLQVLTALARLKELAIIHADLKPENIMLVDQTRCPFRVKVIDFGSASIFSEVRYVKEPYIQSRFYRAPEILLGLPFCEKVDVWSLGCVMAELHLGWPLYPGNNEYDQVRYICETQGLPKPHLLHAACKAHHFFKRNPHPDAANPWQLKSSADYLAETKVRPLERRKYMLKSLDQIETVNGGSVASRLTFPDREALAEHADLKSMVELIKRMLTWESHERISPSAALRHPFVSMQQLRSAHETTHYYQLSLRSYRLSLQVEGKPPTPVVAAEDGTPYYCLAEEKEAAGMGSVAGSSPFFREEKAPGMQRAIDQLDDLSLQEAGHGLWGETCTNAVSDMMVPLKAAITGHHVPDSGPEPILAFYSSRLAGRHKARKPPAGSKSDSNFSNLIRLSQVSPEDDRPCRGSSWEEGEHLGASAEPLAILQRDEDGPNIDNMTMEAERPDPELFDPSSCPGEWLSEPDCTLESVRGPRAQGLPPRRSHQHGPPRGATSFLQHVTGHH
Chain of UniProt Q07002 (whole entry, looked up): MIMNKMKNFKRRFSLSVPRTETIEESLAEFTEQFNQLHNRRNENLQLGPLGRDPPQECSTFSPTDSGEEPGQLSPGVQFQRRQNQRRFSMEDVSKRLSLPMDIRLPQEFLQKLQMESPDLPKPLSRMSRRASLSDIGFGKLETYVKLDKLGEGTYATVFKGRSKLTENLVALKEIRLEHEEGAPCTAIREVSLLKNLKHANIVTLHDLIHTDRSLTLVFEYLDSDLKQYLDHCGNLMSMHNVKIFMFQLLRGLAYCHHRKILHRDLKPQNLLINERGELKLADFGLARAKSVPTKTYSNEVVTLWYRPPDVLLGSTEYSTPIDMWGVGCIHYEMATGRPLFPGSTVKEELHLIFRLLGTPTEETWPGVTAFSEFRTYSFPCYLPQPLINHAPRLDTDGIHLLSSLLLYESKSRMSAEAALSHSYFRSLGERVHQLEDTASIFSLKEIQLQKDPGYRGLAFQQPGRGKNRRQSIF
Chain of UniProt Q9NY57 (whole entry, looked up): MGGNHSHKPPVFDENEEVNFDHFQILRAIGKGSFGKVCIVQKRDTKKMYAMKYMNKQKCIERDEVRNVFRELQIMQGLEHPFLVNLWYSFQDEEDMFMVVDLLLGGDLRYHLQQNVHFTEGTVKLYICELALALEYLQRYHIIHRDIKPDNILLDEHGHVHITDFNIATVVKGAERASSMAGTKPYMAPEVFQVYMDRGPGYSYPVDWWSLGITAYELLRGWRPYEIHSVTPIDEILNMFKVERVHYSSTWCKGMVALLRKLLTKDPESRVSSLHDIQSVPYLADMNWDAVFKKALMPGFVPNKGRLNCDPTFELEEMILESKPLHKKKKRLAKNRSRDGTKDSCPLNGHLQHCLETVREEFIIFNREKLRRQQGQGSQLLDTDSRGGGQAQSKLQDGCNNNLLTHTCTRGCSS

Sample 1
Cell line: HaCaT
Tested at: 100 µM
Time: 60 h
The viability of `C[C@H]1COc2c(C3(N)CC3)c(F)cc3c(=O)c(C(=O)O)cn1c23` is reported as 140%.
For `O=c1ccc2ccc(O)c(O)c2o1`, the viability was 120%.
For `O=C(O)c1ccccc1C(=O)Nc1ccc(S(=O)(=O)Nc2nccs2)cc1`, the viability was 113%.
With `CN1CCc2c(c3ccccc3n2Cc2ccccc2)C1` the viability was 113%.

Sample 2
Target: Maternal embryonic leucine zipper kinase (MELK, Homo sapiens, UniProt Q14680)
Chain of UniProt Q14680 (whole entry, looked up): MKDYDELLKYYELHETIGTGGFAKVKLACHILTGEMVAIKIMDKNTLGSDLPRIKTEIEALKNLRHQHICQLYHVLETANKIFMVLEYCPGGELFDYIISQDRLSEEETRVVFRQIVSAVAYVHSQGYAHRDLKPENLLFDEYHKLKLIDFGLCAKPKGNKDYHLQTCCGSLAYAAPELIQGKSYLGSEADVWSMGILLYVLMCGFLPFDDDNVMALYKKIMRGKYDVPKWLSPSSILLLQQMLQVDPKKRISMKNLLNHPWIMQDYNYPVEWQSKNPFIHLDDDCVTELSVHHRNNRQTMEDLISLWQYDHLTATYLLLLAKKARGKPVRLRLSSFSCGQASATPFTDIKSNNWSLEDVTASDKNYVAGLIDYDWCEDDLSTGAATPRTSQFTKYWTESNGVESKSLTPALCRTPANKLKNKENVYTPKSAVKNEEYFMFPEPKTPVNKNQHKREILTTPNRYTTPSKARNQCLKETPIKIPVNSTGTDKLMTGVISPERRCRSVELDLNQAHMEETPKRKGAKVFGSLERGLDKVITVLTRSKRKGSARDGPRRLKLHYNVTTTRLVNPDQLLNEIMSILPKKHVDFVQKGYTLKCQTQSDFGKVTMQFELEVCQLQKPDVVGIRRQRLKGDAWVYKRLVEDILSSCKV
Observed: enzyme activity
Action: inhibitor
Tested at: 0.5 µM
Relative to: control
With `Cn1nc2c3c(cccc31)C(=O)c1ccccc1-2` the remaining activity was 83.6%.
The remaining activity of `Cc1cc2ncc(-c3ccccc3)nc2cc1C` is reported as 91.1%.
With `O=C(NC(NC(=S)Nc1ccc(F)c([N+](=O)[O-])c1)C(Cl)(Cl)Cl)C(c1ccccc1)c1ccccc1` (centres unmarked) the remaining activity was 102%.
The remaining activity of `CN(C)C[C@H]1CCn2c(c(C3=C(c4cn(C)c5ccccc45)C(=O)NC3=O)c3ccccc32)C1` is reported as 96.4%.
The remaining activity of `CCN(CC)CCNC(=O)c1c(C)[nH]c(/C=C2\C(=O)Nc3ccc(F)cc32)c1C` is reported as 10.4%.
With `C[C@@H]1CCN(C(=O)CC#N)C[C@@H]1N(C)c1ncnc2[nH]ccc12` the remaining activity was 79.4%.

Sample 3
SMILES: CC1=C(C#N)C(c2ccc3c(c2)c(NC(=O)c2ccccc2C)nn3C)C(C#N)=C(C)N1
Observed: cell-free assay
Method: competition with immobilised ligand
Tested at: 1 µM
The remaining binding was 100% (Serine/threonine-protein kinase tousled-like 2 (TLK2, Homo sapiens, UniProt Q86UE8)).
Homeodomain-interacting protein kinase 4 (HIPK4, Homo sapiens, UniProt Q8NE63) — remaining binding: 80%.
The remaining binding was 93% (Serine/threonine-protein kinase RIO1 (RIOK1, Homo sapiens, UniProt Q9BRS2)).
Atypical kinase COQ8A, mitochondrial (COQ8A, Homo sapiens, UniProt Q8NI60) — remaining binding: 100%.
Dual specificity tyrosine-phosphorylation-regulated kinase 2 (DYRK2, Homo sapiens, UniProt Q92630) — remaining binding: 100%.
Tyrosine-protein kinase ABL1, phosphorylated (ABL1, Homo sapiens, UniProt P00519, H396P) — remaining binding: 82%.
The remaining binding was 100% (Eukaryotic translation initiation factor 2-alpha kinase 1 (EIF2AK1, Homo sapiens, UniProt Q9BQI3)).
Cyclin-dependent kinase 18 (CDK18, Homo sapiens, UniProt Q07002) — remaining binding: 100%.
It gave 77% for remaining binding (Mast/stem cell growth factor receptor Kit, autoinhibited (KIT, Homo sapiens, UniProt P10721)).
Serine/threonine-protein kinase WNK1 (WNK1, Homo sapiens, UniProt Q9H4A3) — remaining binding: 82%.
It gave 88% for remaining binding (Leucine-rich repeat serine/threonine-protein kinase 2 (LRRK2, Homo sapiens, UniProt Q5S007)).
For Tyrosine-protein kinase Fgr (FGR, Homo sapiens, UniProt P09769): remaining binding read 92%.
The remaining binding was 94% (Fibroblast growth factor receptor 3 (FGFR3, Homo sapiens, UniProt P22607)).
Serine/threonine-protein kinase PLK4 (PLK4, Homo sapiens, UniProt O00444) — remaining binding: 100%.
The remaining binding was 66% (Protein kinase C iota type (PRKCI, Homo sapiens, UniProt P41743)).
It gave 100% for remaining binding (Serine/threonine-protein kinase 32B (STK32B, Homo sapiens, UniProt Q9NY57)).
For Serine/threonine-protein kinase Chk2 (CHEK2, Homo sapiens, UniProt O96017): remaining binding read 74%.
For 5'-AMP-activated protein kinase catalytic subunit alpha-1 (PRKAA1, Homo sapiens, UniProt Q13131): remaining binding read 77%.

Sample 4
Structure (SMILES): CC(C)n1cnc(-c2ccc(F)cc2)c1-c1ncc(C(=O)Nc2ccc(N3CCN(C)CC3)cc2)[nH]1
Method: phase 2a clinical trial
Host: patients with idiopathic pulmonary fibrosis
The “patients with treatment-emergent adverse events” was 0% (measured: electrocardiogram T wave abnormal; dose not given, Grade 1, all drug arms total).
For measured: lumbar vertebral fracture; dose not given, Grade 4, maximum intensity, all drug arms total: “patients with treatment-emergent adverse events” read 0%.
The “patients with treatment-emergent adverse events” was 0% (measured: electrocardiogram T wave abnormal; 60 mg once daily, Grade 3).
measured: left ventricular dysfunction; 60 mg once daily, Grade 3 — “patients with treatment-emergent adverse events”: 0%.
measured: idiopathic pulmonary fibrosis; 30 mg once daily, Grade 2 — “patients with treatment-emergent adverse events”: 0%.
measured: carbon dioxide decreased; 30 mg once daily, Grade 3 — “patients with treatment-emergent adverse events”: 0%.
It gave 0% for “patients with treatment-emergent adverse events” (measured: electrocardiogram QT prolonged; 30 mg once daily, Grade 1).
For measured: idiopathic pulmonary fibrosis; dose not given, Grade 2, all drug arms: “patients with treatment-emergent adverse events” read 0%.
The “patients with treatment-emergent adverse events” was 0% (measured: drug-induced liver injury; 30 mg once daily, Grade 5).
For measured: benign prostatic hyperplasia; 60 mg once daily, Grade 4, maximum intensity: “patients with treatment-emergent adverse events” read 0%.
